Assay results pooled from the literature.
A part holds a random share of what one study measured. Positions count from the first letter of the parent shown.

Sample 1 — target: MAFG, bZIP domain (human); method: DHFR protein complementation; sample: yeast; reference: wild-type JUN-FOS pair; direction: higher = stronger binding
Notes: single substitutions, most at no-binding floor
Parent: JUN, bZIP domain (human); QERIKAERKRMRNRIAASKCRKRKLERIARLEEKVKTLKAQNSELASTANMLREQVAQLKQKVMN; partner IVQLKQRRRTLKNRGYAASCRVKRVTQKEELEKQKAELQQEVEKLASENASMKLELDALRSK
`A49M` gave a binding fitness of -1.41 natural log.
The binding fitness of `A49S` is reported as -1.28 natural log.
`A49L` has a binding fitness of -1.2 natural log.
For `K36M`, the binding fitness was -1.27 natural log.
`V35P` gave a binding fitness of -1.51 natural log.
For `T48Y`, the binding fitness was -1.13 natural log.
With `V56P` the binding fitness was -1.52 natural log.
`S47D` has a binding fitness of -1.55 natural log.

Sample 2 — method: aptamer microarray, sandwich; form: DNA with 2'F-ANA; sample: in vitro; concentration: 200 nM; with: Cy3 exosite-II aptamer, 400 nM; direction: higher = stronger binding; strand: GGTTGGTGTGGTTGG
Target: Prothrombin, mature alpha-thrombin (F2, Homo sapiens, UniProt P00734)
Notes: whole 15-mer aptamer, many near background
`2'F-ANA at 2 3 4 7 8 9 10 12 14`: “mean fluorescence intensity” 184 a.u.
`2'F-ANA at 3 4 5 9 11 12 13 14 15`: “mean fluorescence intensity” 55.3 a.u.
Under “mean fluorescence intensity”, `2'F-ANA at 1 6 7 8 10 14` is recorded as 80.2 a.u.
`2'F-ANA at 6 11 12 13 14 15`: “mean fluorescence intensity” 202 a.u.
Under “mean fluorescence intensity”, `2'F-ANA at 3 4 5 7 9 13` is recorded as 68.6 a.u.
`2'F-ANA at 1 3 4 5 7 8 9 12 13 14`: “mean fluorescence intensity” 50.5 a.u.
`2'F-ANA at 2 3 4 5 8 9 10 12 14`: “mean fluorescence intensity” 48.3 a.u.
For `2'F-ANA at 6 9 10 13 15`, “mean fluorescence intensity” read 131 a.u.

Sample 3 — method: universal PBM; form: double-stranded DNA, one strand shown; sample: in vitro; concentration: 600 nM; direction: higher = stronger binding
Target: Sal-like protein 4, full length isoform A (SALL4, Homo sapiens, UniProt Q9UJQ4, residues 1-1053)
Sequence of UniProt Q9UJQ4 (whole entry, looked up): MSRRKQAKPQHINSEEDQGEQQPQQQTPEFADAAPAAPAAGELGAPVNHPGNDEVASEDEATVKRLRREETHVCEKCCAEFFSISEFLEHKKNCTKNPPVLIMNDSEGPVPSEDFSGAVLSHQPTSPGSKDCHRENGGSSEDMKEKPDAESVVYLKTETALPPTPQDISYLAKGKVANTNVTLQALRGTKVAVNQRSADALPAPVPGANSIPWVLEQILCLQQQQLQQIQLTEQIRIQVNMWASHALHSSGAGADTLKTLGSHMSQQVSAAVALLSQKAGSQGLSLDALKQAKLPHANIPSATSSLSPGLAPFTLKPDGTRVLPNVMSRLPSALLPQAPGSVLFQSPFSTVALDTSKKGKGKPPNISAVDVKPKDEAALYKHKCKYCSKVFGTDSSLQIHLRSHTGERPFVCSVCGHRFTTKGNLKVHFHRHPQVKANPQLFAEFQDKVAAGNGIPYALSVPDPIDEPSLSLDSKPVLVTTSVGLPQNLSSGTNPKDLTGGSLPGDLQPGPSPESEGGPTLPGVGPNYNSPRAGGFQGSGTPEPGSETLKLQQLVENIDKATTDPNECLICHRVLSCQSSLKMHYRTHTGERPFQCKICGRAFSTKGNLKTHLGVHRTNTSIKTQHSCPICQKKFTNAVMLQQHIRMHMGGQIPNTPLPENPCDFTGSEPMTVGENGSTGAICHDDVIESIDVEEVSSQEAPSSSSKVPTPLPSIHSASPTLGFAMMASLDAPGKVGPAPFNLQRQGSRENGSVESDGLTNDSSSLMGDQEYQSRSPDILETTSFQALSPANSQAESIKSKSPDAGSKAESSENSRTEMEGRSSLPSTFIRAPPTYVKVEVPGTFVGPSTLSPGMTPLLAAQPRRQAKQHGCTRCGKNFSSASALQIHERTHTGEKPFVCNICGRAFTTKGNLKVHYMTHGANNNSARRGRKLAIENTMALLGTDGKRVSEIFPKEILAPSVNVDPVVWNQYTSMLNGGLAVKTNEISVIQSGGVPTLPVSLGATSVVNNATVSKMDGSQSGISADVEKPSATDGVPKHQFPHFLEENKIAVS
Notes: 8-mer, flanks averaged, mean of replicates
With `GAATTCAA` the E-score was 0.0949.
The E-score of `AATTGTCG` is reported as -0.00566.
With `TACCTCTA` the E-score was 0.195.
With `GAAGGGAA` the E-score was -0.136.
For `CATACAAG`, the E-score was 0.135.
With `GGCACGCC` the E-score was -0.441.
`ACCCCAGA` gave an E-score of -0.236.
With `CCCGCGAA` the E-score was -0.0916.

Further values, each from its own experiment
Parent: viral docking peptide; KKAKRRLFTISDS; partner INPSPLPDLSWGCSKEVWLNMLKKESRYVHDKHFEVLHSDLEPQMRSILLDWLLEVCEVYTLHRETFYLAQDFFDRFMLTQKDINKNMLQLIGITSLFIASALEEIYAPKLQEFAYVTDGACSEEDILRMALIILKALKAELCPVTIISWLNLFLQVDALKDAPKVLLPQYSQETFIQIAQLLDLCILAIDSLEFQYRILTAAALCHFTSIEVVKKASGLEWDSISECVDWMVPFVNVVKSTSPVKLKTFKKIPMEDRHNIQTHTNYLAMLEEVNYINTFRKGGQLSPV
For `I10A`, “normalised enrichment score” read 3.39 (CCNE2, cyclin fold, Cln2 fusion (human); yeast growth competition, sequencing; yeast; strong parent motif; reference: not given, higher = stronger binding).

A few entries again (sample 1):
For `T48Y`, the binding fitness was -1.13 natural log.
With `V56P` the binding fitness was -1.52 natural log.
